Experimental data pooled from the literature.
Lines come from different studies, so protocols differ.
Sequence of UniProt P49840 (whole entry, looked up): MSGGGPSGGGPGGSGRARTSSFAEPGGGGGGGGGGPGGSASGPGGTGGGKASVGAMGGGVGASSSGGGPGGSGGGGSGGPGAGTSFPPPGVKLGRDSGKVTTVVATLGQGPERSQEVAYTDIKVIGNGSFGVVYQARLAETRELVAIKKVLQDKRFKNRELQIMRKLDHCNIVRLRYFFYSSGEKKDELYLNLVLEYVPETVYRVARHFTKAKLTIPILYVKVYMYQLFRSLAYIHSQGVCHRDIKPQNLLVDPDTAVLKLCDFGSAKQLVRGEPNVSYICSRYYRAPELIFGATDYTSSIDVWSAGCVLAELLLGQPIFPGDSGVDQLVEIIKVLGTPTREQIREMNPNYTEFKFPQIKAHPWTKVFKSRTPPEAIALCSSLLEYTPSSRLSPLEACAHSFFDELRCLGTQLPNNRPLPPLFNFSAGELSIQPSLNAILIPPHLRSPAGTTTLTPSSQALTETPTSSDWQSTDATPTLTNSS
Sequence of UniProt Q14680 (whole entry, looked up): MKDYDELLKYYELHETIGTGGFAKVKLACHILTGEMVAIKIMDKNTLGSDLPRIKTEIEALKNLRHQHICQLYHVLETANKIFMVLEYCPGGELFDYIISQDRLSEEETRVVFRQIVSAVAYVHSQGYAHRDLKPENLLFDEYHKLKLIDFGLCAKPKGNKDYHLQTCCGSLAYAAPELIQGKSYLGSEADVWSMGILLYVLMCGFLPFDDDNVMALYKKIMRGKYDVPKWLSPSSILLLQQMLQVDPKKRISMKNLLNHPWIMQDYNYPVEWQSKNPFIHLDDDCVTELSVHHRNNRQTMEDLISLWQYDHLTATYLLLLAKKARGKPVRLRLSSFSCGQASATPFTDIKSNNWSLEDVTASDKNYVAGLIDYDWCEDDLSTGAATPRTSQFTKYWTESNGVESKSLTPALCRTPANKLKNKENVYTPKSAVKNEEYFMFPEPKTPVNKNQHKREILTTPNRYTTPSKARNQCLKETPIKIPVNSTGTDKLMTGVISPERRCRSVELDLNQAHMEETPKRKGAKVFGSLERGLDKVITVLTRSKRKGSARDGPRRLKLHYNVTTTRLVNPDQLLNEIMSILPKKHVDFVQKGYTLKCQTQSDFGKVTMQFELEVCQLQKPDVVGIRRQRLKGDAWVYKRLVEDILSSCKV
Sequence of UniProt P08069 (whole entry, looked up): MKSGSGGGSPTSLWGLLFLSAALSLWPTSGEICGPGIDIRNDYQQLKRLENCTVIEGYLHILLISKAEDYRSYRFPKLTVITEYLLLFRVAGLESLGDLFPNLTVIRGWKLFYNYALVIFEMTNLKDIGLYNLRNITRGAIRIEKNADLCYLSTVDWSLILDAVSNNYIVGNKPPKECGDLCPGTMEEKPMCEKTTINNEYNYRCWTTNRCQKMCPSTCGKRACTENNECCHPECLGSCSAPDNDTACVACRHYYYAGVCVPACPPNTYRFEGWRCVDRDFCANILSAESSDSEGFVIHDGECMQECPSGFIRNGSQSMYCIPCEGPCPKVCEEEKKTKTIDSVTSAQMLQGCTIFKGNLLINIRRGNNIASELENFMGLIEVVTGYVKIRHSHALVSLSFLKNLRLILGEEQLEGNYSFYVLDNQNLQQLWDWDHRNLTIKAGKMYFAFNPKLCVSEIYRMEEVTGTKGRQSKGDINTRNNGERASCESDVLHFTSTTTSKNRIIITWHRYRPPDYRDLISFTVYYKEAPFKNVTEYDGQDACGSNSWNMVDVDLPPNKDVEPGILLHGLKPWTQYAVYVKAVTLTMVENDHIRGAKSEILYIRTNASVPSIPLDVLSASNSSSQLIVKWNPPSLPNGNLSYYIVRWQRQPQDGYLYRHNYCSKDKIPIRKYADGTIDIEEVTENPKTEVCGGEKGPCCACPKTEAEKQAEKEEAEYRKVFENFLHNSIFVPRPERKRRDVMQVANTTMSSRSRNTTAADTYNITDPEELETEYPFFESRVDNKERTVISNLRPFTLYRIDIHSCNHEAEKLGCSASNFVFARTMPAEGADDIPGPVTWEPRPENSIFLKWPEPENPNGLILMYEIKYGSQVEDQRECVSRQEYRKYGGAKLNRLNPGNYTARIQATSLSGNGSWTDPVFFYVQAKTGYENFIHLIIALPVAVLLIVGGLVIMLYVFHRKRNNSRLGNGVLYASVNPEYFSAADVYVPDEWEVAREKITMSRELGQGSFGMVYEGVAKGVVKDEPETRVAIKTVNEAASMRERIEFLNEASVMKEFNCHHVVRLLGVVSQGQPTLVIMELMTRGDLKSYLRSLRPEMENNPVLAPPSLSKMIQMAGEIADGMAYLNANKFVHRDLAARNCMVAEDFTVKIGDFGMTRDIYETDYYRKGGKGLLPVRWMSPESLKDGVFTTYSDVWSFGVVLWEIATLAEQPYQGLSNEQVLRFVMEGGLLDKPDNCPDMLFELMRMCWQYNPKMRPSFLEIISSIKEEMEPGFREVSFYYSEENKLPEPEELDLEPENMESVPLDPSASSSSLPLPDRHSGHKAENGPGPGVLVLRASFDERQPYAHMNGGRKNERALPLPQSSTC
Sequence of UniProt Q13177 (whole entry, looked up): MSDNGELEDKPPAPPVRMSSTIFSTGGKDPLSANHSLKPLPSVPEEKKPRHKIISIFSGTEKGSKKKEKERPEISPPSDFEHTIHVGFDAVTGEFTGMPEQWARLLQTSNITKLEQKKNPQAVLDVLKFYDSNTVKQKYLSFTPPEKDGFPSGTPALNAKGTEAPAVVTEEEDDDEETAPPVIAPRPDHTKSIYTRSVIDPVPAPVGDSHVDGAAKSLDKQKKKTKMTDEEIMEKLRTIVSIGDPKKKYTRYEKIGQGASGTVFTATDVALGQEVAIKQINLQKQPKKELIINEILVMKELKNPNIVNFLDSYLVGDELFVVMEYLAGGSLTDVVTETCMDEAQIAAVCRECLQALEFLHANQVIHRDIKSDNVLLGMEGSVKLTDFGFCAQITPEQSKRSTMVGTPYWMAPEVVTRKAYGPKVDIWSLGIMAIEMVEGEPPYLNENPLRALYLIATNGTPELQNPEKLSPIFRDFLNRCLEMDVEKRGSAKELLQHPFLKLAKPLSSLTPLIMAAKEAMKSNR

Cc1ccc(S(=O)(=O)NNc2ccc([N+](=O)[O-])cc2[N+](=O)[O-])cc1  viability (HEK293; cell growth or viability, MTT; 15.625 µg/mL): 88%
Cc1cc([C@@H](C)Nc2ccccc2C(=O)O)c2nc(N3CCC(F)(F)CC3)c(C#N)c(=O)n2c1  remaining binding (IGF1R (Homo sapiens, UniProt P08069); binding, competition with immobilised ligand; 10 µM): 100%
COc1cc(-c2cncc3c2CN(C)Cc2cc(N4CCNCC4)ccc2-3)cc(OC)c1OC  remaining activity (PAK2 (Homo sapiens, UniProt Q13177); enzyme activity, inhibitor; 1 µM): 101%
O=c1[nH]c2cc(-c3ccc(Cl)cc3)sc2c(=O)n1O  viability (HFF; cell growth or viability, MTS; 10 µM, 7 days): 78%
Nc1ccn([C@@H]2O[C@H](CO)[C@@H](O)C2(F)F)c(=O)n1  viability (MDA-MB-231; cell growth or viability, MTT; 0.15625 µg/mL, 48 h): 87.7%
CNC(=O)c1cc(Oc2ccc(NC(=O)Nc3ccc(Cl)c(C(F)(F)F)c3)cc2)ccn1  viability (WISH; cell growth or viability, MTT; 100 µM, 24 h): 19.7%
C=CC(=O)N1CCC(COCC(=O)N2CCN(c3nc(-c4cnc(N)nc4C(F)F)nc(N4CCOC[C@@H]4C)n3)CC2)CC1  remaining binding (GSK3A (Homo sapiens, UniProt P49840); binding, competition with immobilised ligand; 1 µM): 93%
CNc1ncc2c(/C=C/C(=O)N3CCC(OC)CC3)nn(Cc3cccc(C(F)(F)F)c3)c2n1  remaining activity (MELK (Homo sapiens, UniProt Q14680); enzyme activity, inhibitor, radiometric; 1 µM): 104%
COc1cc(/C=C/C(=O)C(=Cc2ccc(O)cc2)C(=O)/C=C/c2ccc(O)c(OC)c2)ccc1O  viability (WRL68; cell growth or viability, MTT; 24.8 µg/mL, 48 h): 77.2%
COc1cccc(NC(=O)Nc2ccc(Oc3nc4ccccc4n4cnnc34)cc2)c1  viability (WISH; cell growth or viability, MTT; 6.25 µM, 24 h): 100%
Cc1ccc(S(=O)(=O)[N](Nc2ccc([N+](=O)[O-])cc2[N+](=O)[O-])[Sn]([Cl])[Cl])cc1  viability (HEK293; cell growth or viability, MTT; 15.625 µg/mL): 89%
COc1cccc2c1C(=O)c1c(O)c3c(c(O)c1C2=O)C[C@@](O)(C(=O)CO)C[C@@H]3O[C@H]1C[C@H](N)[C@H](O)[C@H](C)O1  viability (SW480; cell growth or viability, MTT; 12.5 µg/mL): 64.6%

For quick reference, copied from above:
Nc1ccn([C@@H]2O[C@H](CO)[C@@H](O)C2(F)F)c(=O)n1  viability (MDA-MB-231; cell growth or viability, MTT; 0.15625 µg/mL, 48 h): 87.7%
Cc1cc([C@@H](C)Nc2ccccc2C(=O)O)c2nc(N3CCC(F)(F)CC3)c(C#N)c(=O)n2c1  remaining binding (IGF1R (Homo sapiens, UniProt P08069); binding, competition with immobilised ligand; 10 µM): 100%
